Experimental data gathered from unrelated publications.
Every numbered part comes from another study and shows a few of its results, in no order.

Block 1
Target: Max-binding protein MNT, bHLH-zipper, MAX partner unstated (MNT, Homo sapiens, UniProt Q99583, residues 220-300)
Method: protein-binding microarray
Form: double-stranded DNA, one strand shown
Medium: in vitro
Concentration: not given
Setting: k-mer, scored over probes, only values ≥0.25
Reading: higher = stronger binding
Residues (chain): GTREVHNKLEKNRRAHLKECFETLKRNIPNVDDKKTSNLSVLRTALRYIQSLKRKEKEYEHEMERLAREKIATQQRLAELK
Strand	E-score
CGTGTAGA	0.279
CCAGGCAC	0.298
ACGTGATC	0.384
CATGGCCA	0.253
CACGGGGC	0.35

Block 2
Target: Histone acetyltransferase KAT6A, winged helix 1, GST fusion (KAT6A, Homo sapiens, UniProt Q92794, residues 1-85)
Method: protein binding microarray
Form: double-stranded DNA, one strand shown
Medium: in vitro
Concentration: not given
Setting: 8-mer, flanks averaged, mean of 2 arrays, mostly near background
Reference: not given
Reading: higher = stronger binding
Construct (chain): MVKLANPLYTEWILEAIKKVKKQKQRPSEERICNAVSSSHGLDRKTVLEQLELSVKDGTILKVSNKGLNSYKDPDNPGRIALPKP
Strand	E-score
GCCTTTCC	0.0823
AAGTTGAC	-0.224
AAAAAAAT	-0.186

Block 3
Target: Ras GTPase-activating protein-binding protein 1, C-terminal RGG region (G3BP1, Homo sapiens, UniProt Q13283)
Chain of UniProt Q13283 (whole entry, looked up): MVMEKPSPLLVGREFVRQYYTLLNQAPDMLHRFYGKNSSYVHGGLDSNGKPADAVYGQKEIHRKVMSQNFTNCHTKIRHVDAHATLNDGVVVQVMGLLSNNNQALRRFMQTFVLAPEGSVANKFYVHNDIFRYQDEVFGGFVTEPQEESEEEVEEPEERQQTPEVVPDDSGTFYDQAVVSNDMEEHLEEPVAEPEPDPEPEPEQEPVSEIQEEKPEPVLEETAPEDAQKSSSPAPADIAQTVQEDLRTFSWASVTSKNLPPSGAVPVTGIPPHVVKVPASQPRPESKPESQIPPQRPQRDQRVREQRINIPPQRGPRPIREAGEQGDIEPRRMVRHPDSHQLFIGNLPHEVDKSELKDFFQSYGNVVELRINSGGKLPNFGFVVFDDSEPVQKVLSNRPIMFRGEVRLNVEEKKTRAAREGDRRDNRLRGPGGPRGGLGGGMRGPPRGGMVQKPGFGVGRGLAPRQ
Method: RNA Bind-n-Seq
Form: RNA
Medium: in vitro
Concentration: 1 µM
Setting: whole 134-nt RNA, ends assumed
Added: 150 mM KCl
Reference: input library
Reading: higher = stronger binding
Strand	log2 enrichment
GGGAGUUCUACAGUCCGACGAUCCAAGUCCUGUGCUACACAUCGUAUGUACCGAAUCGGUUUUUGGUUUUUUUGGUGGAAAGUAUUAUGUUACGCCGUUCGGAUCUGCACUUCUGGAAUUCUCGGGUGUCAAGG	-1.47
GGGAGUUCUACAGUCCGACGAUCAUGCACUUGACAUAGUAGCAAAUUGGUUCUGAAUUAUGCAACUGUUUGCUAUUUAGUAAACUAGCAAAUGAUGCAUGUAUUUUGUUUUUCUGGAAUUCUCGGGUGUCAAGG	-2.03
GGGAGUUCUACAGUCCGACGAUCACCAUGCAGGUGGGCAUCUUUGGGAAGUGGGGCAAGGGGGGGAUAGGGAGGGGGGUAACACUUUGGGAACAGGUGGUCCCAGGUCGAAACUGGAAUUCUCGGGUGUCAAGG	-1.26

Mixed results
Molecule	target	test	test system	setting	how to read	endpoint	value
PhoQ, residues 284 288 289 292 302 303 GTAMQF	PhoP, residues 12 14 15 18 19 LHHVQ (Escherichia coli, UniProt P23836)	Sort-seq, measured: YFP reporter	E. coli	PhoQ-PhoP variant library, added: 10 µM Mg2+	reference: high Mg2+ state, higher = stronger signaling	fold induction	3.44

Some of these lines once more (block 1):
Strand	E-score
CGTGTAGA	0.279
